Assay results gathered from unrelated publications.
Compare with care: the assays were run in different laboratories. Numbers after ± are the reported error.
Target: Sodium-dependent serotonin transporter (Slc6a4, Rattus norvegicus, UniProt P31652)
UniProt P31652, sequence (whole entry, looked up): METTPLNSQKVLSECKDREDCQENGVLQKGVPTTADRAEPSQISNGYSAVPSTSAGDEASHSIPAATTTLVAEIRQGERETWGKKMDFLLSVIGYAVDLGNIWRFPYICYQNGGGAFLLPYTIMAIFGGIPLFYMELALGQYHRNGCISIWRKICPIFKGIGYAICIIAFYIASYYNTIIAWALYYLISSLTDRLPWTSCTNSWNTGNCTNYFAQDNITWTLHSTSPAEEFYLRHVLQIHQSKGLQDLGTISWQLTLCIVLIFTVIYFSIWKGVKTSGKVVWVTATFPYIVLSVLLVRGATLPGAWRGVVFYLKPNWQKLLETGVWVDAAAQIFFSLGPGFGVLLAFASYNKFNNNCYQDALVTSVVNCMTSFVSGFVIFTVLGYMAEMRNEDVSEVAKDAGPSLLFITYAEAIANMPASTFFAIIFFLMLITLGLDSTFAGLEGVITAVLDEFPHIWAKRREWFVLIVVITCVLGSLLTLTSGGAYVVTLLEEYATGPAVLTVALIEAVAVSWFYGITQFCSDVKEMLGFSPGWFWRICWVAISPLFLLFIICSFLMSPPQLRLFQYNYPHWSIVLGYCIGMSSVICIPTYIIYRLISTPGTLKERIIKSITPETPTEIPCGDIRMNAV

| Compound | assay | system | conditions | measurement | value |
| --- | --- | --- | --- | --- | --- |
| COC(=O)[C@H]1[C@@H](c2ccc(SC)c(Br)c2)C[C@@H]2CC[C@H]1N2C | – | – | – | Ki | 0.6 ± 0.2 nM |
| Cc1ccc([C@H]2OC(N)=N[C@H]2C)cc1 (racemic) | substrate release, releaser, [3H]5-HT release | rat brain synaptosomes | together with: [3H]5-HT 5 nM | EC50 | 18.5 ± 2.8 nM |
| CNC(C)C(=O)c1ccccc1 (stereo not drawn) | substrate release, releasing agent | rat brain synaptosomes | together with: [3H]5-HT | EC50 | 2590 nM |
| Fc1ccc(-c2csc(N3CCNCC3)n2)cc1 | [3H]5-HT uptake, inhibitor | – | 30 min preincubation | Ki | 190 ± 40 nM |
| Cc1ccc([C@@H]2OC(N)=N[C@H]2C)cc1 (relative stereo) | substrate release, releaser | rat brain synaptosomes | together with: [3H]5-HT 5 nM | EC50 | 59.9 ± 17.2 nM |
| CCC[C@H](C(=O)c1ccccc1)N1CCCC1 | transporter uptake, inhibitor, radiometric | – | – | IC50 | > 10000 nM |
| COC(=O)[C@H]1[C@@H](c2ccc(SC)cc2)C[C@@H]2CC[C@H]1N2C | – | – | – | Ki | 0.7 ± 0.2 nM |
| C[C@@H]1N=C(N)O[C@H]1c1ccc2c(c1)OCO2 (racemic) | substrate release, releaser | rat brain synaptosomes | together with: [3H]5-HT 5 nM | EC50 | 73.4 ± 12 nM |
| Brc1ccc(CN2CCC(CCOC(c3ccccc3)c3ccccc3)CC2)cc1 | binding | – | – | Ki | 6720 ± 1360 nM |
| COc1ccc2[nH]cc(CCNC(C)C)c2c1 | inhibitor | – | – | IC50 | 5440 ± 377 nM |
| CCCC(NCC)C(=O)c1ccc2c(c1)OCO2 (stereo not drawn) | transporter uptake, inhibitor, radiometric | – | – | IC50 | 383 nM |
| COC(=O)[C@H]1[C@@H](c2ccc(Cl)c(Cl)c2)C[C@@H]2CC[C@H]1N2C | ligand displacement, radioligand | – | cell membranes | Ki | 10 nM |
| CCCN(CCC)CCc1c[nH]c2ccc(OC)cc12 | inhibitor | – | – | IC50 | 1030 ± 140 nM |
| CN1[C@H]2CC[C@@H]1[C@@H](C(=O)N1CCCC1)[C@@H](c1ccc(I)cc1)C2 | serotonin reuptake, inhibitor | rat brain synaptosomes | – | IC50 | 404 nM |
| CC(C)N(C)CCc1c[nH]c2ccccc12 | inhibitor | – | – | IC50 | > 10000 nM |
| CCN(CC)c1ccc2c(-c3ccc(S(=O)(=O)NCCCCCC(=O)NCCN4C5CCC4[C@@H](C(=O)OC)[C@@H](c4ccc(Cl)c(Cl)c4)C5)cc3S(=O)(=O)[O-])c3ccc(=[N+](CC)CC)cc-3oc2c1 (stereo partly drawn) | ligand displacement, radioligand | – | cell membranes | Ki | 16 nM |
| CNCCc1c[nH]c2ccc(OC)cc12 | – | – | – | EC50 | 1110 ± 700 nM |
| CNC(C)Cc1ccc2ccoc2c1 (stereo not drawn) | transporter-mediated release, substrate | rat brain synaptosomes | 5 min, together with: [3H]5-HT | EC50 | 33 ± 4 nM |

Excerpt of the above:
| Compound | assay | system | conditions | measurement | value |
| --- | --- | --- | --- | --- | --- |
| CNCCc1c[nH]c2ccc(OC)cc12 | – | – | – | EC50 | 1110 ± 700 nM |
| CNC(C)Cc1ccc2ccoc2c1 (stereo not drawn) | transporter-mediated release, substrate | rat brain synaptosomes | 5 min, together with: [3H]5-HT | EC50 | 33 ± 4 nM |
